{"data": "Results pooled from the literature", "CNR2": "Cannabinoid receptor 2 (CNR2, Homo sapiens, UniProt P34972)", "note": "Lines come from different studies, so protocols differ. ± gives the spread as reported.", "UniProt P34972, sequence (whole entry, unmodified, looked up)": "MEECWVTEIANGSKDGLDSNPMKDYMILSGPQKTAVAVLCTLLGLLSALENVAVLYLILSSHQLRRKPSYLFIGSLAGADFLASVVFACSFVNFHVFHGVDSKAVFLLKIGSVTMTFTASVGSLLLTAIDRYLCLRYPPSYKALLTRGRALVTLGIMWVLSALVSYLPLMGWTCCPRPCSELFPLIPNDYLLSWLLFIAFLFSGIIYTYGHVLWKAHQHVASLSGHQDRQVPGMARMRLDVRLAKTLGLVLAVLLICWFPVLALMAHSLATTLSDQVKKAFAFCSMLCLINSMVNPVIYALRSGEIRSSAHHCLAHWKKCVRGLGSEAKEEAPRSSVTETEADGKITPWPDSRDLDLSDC"}
{"SMILES": "CCC(CC)(NC(=O)c1ccc(C2CC2)c(Cc2ccc(F)cc2)n1)C(=O)NCCOCCOCCNC(=O)c1ccc2c(c1)C(=O)OC21c2ccc(N)c(S(=O)(=O)O)c2Oc2c1ccc(N)c2S(=O)(=O)O", "tested on": "CNR2", "assay": "binding", "scale": "relative to: CB1 Ki over CB2 Ki", "endpoint": "selectivity ratio", "result": "> 70"}
{"SMILES": "CNC(=O)[C@@H](NC(=O)c1cc(OCC2(C)COC2)c(C2CC2)cn1)C(C)(C)C", "tested on": "CNR2", "assay": "cAMP, agonist", "test system": "CHO cells", "scale": "relative to: CB1 EC50 over CB2 EC50", "endpoint": "selectivity ratio", "result": "> 383"}
{"SMILES": "CCOC(=O)C(CC)(CCCSCCOCCOCCOCCNC(=O)OC(C)(C)C)NC(=O)c1ccc(C2CC2)c(Cc2ccc(F)cc2)n1 (centres unmarked)", "tested on": "CNR2", "assay": "radioligand binding", "scale": "relative to: CB1 over CB2 (human)", "endpoint": "Ki ratio", "result": 4}
{"SMILES": "O=c1c(O)c(-c2ccc(O)c(O)c2)oc2cc(O)cc(O)c12", "tested on": "human coronavirus OC43", "assay": "virus-induced cell killing", "test system": "MRC-5", "setting": "screen", "endpoint": "maximum inhibition", "result": "1.65%"}
{"SMILES": "CN(C(=O)n1cnc(-c2ccc[n+]([O-])c2)c1)C1CCCCC1", "tested on": "CNR2", "assay": "radioligand binding", "setting": "50 µM, together with: [3H]WIN-55,212-2", "endpoint": "inhibition", "result": "23%"}
{"SMILES": "CCCCCCC(C)(C)c1ccc([C@@H]2C[C@H](O)CC[C@H]2CCCO)c(O)c1", "tested on": "Cannabinoid receptor 2 (CNR2, Homo sapiens, UniProt P34972, V261L)", "assay": "cAMP inhibition, agonist, CAMYEL BRET biosensor", "setting": "together with: 10 µM forskolin", "scale": "relative to: wild type receptor", "endpoint": "Emax", "result": "62.7 ± 1.9%"}
{"SMILES": "O=C(Nc1cnccc1Cl)N1CCN(Cc2ccc3c(c2)OC(F)(F)O3)CC1", "tested on": "CNR2", "assay": "binding", "setting": "10 µM, together with: [3H]WIN-55,212-2", "endpoint": "inhibition", "result": "10%"}
{"SMILES": "CN1CCN(c2cc(-c3ccncc3)c(-c3ccc4ccccc4c3)nn2)CC1", "tested on": "CNR2", "assay": "antagonist, FLIPR", "setting": "10 µM", "endpoint": "inhibition", "result": "0.2%"}
{"SMILES": "O=C(Nc1cccnn1)N1CCC(=Cc2cccc(Oc3ccc(C(F)(F)F)cn3)c2)CC1", "tested on": "CNR2", "assay": "binding", "setting": "50 µM, together with: [3H]WIN-55,212-2", "endpoint": "inhibition", "result": "66%"}
{"SMILES": "CCOC(=O)C(CC)(CCCSC)NC(=O)c1ccc(C2CC2)c(Cc2ccc(F)cc2)n1 (centres unmarked)", "tested on": "CNR2", "assay": "radioligand binding", "scale": "relative to: CB1 over CB2 (human)", "endpoint": "Ki ratio", "result": 7}
{"SMILES": "Cc1cccc(-c2nn3c(c2-c2ccnc4ccc(C(N)=O)cc24)CCC3)n1", "tested on": "human coronavirus OC43", "assay": "virus-induced cell killing", "test system": "MRC-5", "setting": "screen", "endpoint": "maximum inhibition", "result": "10.2%"}
{"SMILES": "NC(=O)[C@@H]1CC(F)(F)CN1C(=O)c1ccc(N2CC(F)(F)C2)c(OCC2CC2)n1", "tested on": "CNR2", "assay": "binding, [3H]-CP55940 displacement", "scale": "relative to: CB1 Ki over CB2 Ki", "endpoint": "selectivity ratio", "result": 102}
{"SMILES": "C=CCN1CC[C@]23c4c5ccc(O)c4O[C@H]2C(=O)CC[C@]3(O)[C@H]1C5", "tested on": "CNR2", "setting": "concentration not given", "endpoint": "inhibition", "result": "13.1%"}
{"SMILES": "CCOC(=O)[C@](CC)(CCC[S+]([O-])CCOCCOCCNC(=O)OC(C)(C)C)NC(=O)c1ccc(C2CC2)c(Cc2ccc(F)cc2)n1 (some centres unmarked)", "tested on": "CNR2", "assay": "radioligand binding", "scale": "relative to: CB1 over CB2 (human)", "endpoint": "Ki ratio", "result": 11}
{"SMILES": "COC(=O)[C@@H](NC(=O)c1nn(Cc2ccc(F)cc2)c2ccccc12)C(C)(C)C", "tested on": "CNR2", "assay": "GTPase", "scale": "relative to: compound", "endpoint": "Gi GTP turnover maximum", "result": "101%"}
{"SMILES": "CC/C(=C(\\c1ccccc1)c1ccc(OCCN(C)C)cc1)c1ccccc1", "tested on": "CNR2", "assay": "measured: cAMP", "test system": "CHO-hCB2 cells", "setting": "10 µM", "scale": "relative to: basal", "endpoint": "adenylyl cyclase activity increase", "result": "36%"}
{"SMILES": "CCOC(=O)C(CC)(CCCSCCOCCOCCNc1ccc([N+](=O)[O-])c2nonc12)NC(=O)c1ccc(C2CC2)c(Cc2ccc(F)cc2)n1 (racemic)", "tested on": "CNR2", "assay": "radioligand binding", "scale": "relative to: CB1 over CB2 (human)", "endpoint": "Ki ratio", "result": 17}
{"SMILES": "Cc1nc([C@@](C)(CC2CC2)NC(=O)c2cc(OCC(F)(F)F)c(C3CC3)cn2)no1", "tested on": "CNR2", "assay": "cAMP, agonist", "test system": "CHO cells", "scale": "relative to: CB1 EC50 over CB2 EC50", "endpoint": "selectivity ratio", "result": 174}
{"SMILES": "CCOC(=O)C(CCCOC)NC(=O)c1ccc(C2CC2)c(Cc2ccc(F)cc2)n1 (centres unmarked)", "tested on": "CNR2", "assay": "radioligand binding", "scale": "relative to: CB1 over CB2 (human)", "endpoint": "Ki ratio", "result": 6}
{"SMILES": "C=C1CC/C=C(\\C)CC[C@@H]2[C@@H]1CC2(C)C", "tested on": "CNR2", "assay": "[3H]CP55,940 binding, radioligand displacement", "test system": "HEK293 cell membranes", "setting": "31.6 µM, together with: 0.5 mg/mL BSA", "endpoint": "inhibition", "result": "< 25%"}
{"note": "Repeated from above:"}
{"SMILES": "CCOC(=O)C(CC)(CCCSC)NC(=O)c1ccc(C2CC2)c(Cc2ccc(F)cc2)n1 (centres unmarked)", "tested on": "CNR2", "assay": "radioligand binding", "scale": "relative to: CB1 over CB2 (human)", "endpoint": "Ki ratio", "result": 7}
{"SMILES": "CN(C(=O)n1cnc(-c2ccc[n+]([O-])c2)c1)C1CCCCC1", "tested on": "CNR2", "assay": "radioligand binding", "setting": "50 µM, together with: [3H]WIN-55,212-2", "endpoint": "inhibition", "result": "23%"}
{"SMILES": "CCOC(=O)C(CC)(CCCSCCOCCOCCNc1ccc([N+](=O)[O-])c2nonc12)NC(=O)c1ccc(C2CC2)c(Cc2ccc(F)cc2)n1 (racemic)", "tested on": "CNR2", "assay": "radioligand binding", "scale": "relative to: CB1 over CB2 (human)", "endpoint": "Ki ratio", "result": 17}
